{"data": "Published values from different studies", "APP Aβ40 fibrils": "Amyloid-beta precursor protein, Aβ40 fibrils (APP, Homo sapiens, UniProt P05067)", "APP Aβ42 aggregates": "Amyloid-beta precursor protein, Aβ42 aggregates (APP, Homo sapiens, UniProt P05067)", "APP": "Amyloid-beta precursor protein (APP, Homo sapiens, UniProt P05067)", "APP amyloid-beta": "Amyloid-beta precursor protein, amyloid-beta (APP, Homo sapiens, UniProt P05067)", "APP amyloid-beta aggregates": "Amyloid-beta precursor protein, amyloid-beta aggregates (APP, Homo sapiens, UniProt P05067)", "note": "Each line is one published result; not all experiments were run side by side. “And” joins repeats or separate records; there may be more than shown. ± marks the error that the study gave."}
{"Structure (SMILES)": "COc1ccc(-c2cc(=O)c3c(O)cc(O)c(-c4cc(-c5cc(=O)c6c(O)cc(O)cc6o5)ccc4O)c3o2)cc1", "target": "Amyloid-beta precursor protein, Aβ42 fibrils (APP, Homo sapiens, UniProt P05067)", "assay": "amyloid-beta 1-42 disaggregation, thioflavin T fluorescence", "conditions": "7 h, 37 °C, with: 5 µM thioflavin T", "endpoint": "EC50", "value": "1450 ± 400 nM"}
{"Structure (SMILES)": "COc1cc(-c2nc3ccccc3s2)cc(CN(C)Cc2ccccn2)c1O", "target": "APP Aβ40 fibrils", "assay": "binding, ThT competition", "system": "Aβ fibrils", "conditions": "Aβ 5 µM, with: ThT 2 µM", "endpoint": "Ki", "value": "36 ± 6 nM"}
{"Structure (SMILES)": "CCN(CC)c1ccc(C=C(C#N)C(=O)OCCOCCOCCOC)cc1", "target": "APP Aβ42 aggregates", "assay": "binding, fluorescence titration", "conditions": "with: pre-aggregated Aβ(1-42) 5.0 µM", "endpoint": "Kd", "value": "4800 nM"}
{"Structure (SMILES)": "CN(C)c1ccc(-c2nc3ccc(OCCCN4CCN5CCN(CC4)CC(=O)[O][Al]([F])[O]C(=O)C5)cc3s2)cc1", "target": "Amyloid-beta precursor protein, fibril (APP, Homo sapiens, UniProt P05067)", "assay": "ligand displacement, radioligand", "endpoint": "Ki", "value": "25.2 nM"}
{"Structure (SMILES)": "COCCOCCOCCOC(=O)C(C#N)=Cc1ccc(N(C)C)cc1", "target": "APP Aβ42 aggregates", "assay": "binding, fluorescence titration", "conditions": "with: pre-aggregated Aβ(1-42) 5.0 µM", "endpoint": "Kd", "value": "2600 nM"}
{"Structure (SMILES)": "COc1cc(OC)c2c(O)c3c(cc2c1)OC(C)(O)CC3=O (stereo not shown)", "target": "APP", "assay": "amyloid aggregation, inhibitor, fluorescence", "endpoint": "IC50", "value": "65900 nM"}
{"Structure (SMILES)": "CC(C)c1noc(-c2ccc(-n3cnc(C(=O)NCc4ccco4)c3)nc2)n1", "target": "APP amyloid-beta", "assay": "binding, competition binding", "system": "Alzheimer brain homogenate", "conditions": "with: [3H]PiB", "endpoint": "Ki", "value": "> 1000 nM"}
{"Structure (SMILES)": "COCCOCCn1c2ccc(F)cc2c2cc(/C=C/c3cc[n+](CCO)c4ccccc34)ccc21", "target": "APP", "assay": "amyloid aggregation, inhibitor, fluorescence", "endpoint": "IC50", "value": "3400 nM"}
{"Structure (SMILES)": "COc1cc(-c2nc3ccccc3s2)cc(CN2Cc3cccc(n3)CNCc3cccc(n3)C2)c1O", "target": "APP Aβ40 fibrils", "assay": "Aβ fibril binding, ThT fluorescence competition", "conditions": "Cu complex of ligand, Aβ 2 µM, with: thioflavin T 1 µM", "endpoint": "Ki", "value": "275 ± 20 nM"}
{"Structure (SMILES)": "CCCCN(CCCC)c1ccc(C=C(C#N)C(=O)OCCOCCOCCOC)cc1", "target": "APP amyloid-beta aggregates", "assay": "IgG-amyloid beta binding, inhibitor, ELISA", "conditions": "50 % inhibition, with: aggregated amyloid beta", "endpoint": "IC50", "value": "90600 nM and 91000 nM"}
{"Structure (SMILES)": "O=C(C=Cc1ccc(O)c(OC(F)(F)F)c1)C(CCOCCOCCOCCO)C(=O)C=Cc1ccc(O)c(OC(F)(F)F)c1 (stereo not shown)", "target": "APP amyloid-beta aggregates", "assay": "binding, thioflavin T competition", "endpoint": "IC50", "value": "1850 nM"}
{"Structure (SMILES)": "COc1cc(O)c2c(c1O)OC(c1ccccc1)CC2=O (stereo not shown)", "target": "APP", "endpoint": "IC50", "value": "55300 ± 2000 nM"}
{"Structure (SMILES)": "CNc1ccc(-c2nc3ccc(O)c(CN4CCN(C)CCN(C)CC4)c3s2)cc1", "target": "APP Aβ40 fibrils", "assay": "binding to Aβ aggregates, ThT competition", "conditions": "Aβ 5 µM, with: ThT 2 µM", "endpoint": "Ki", "value": "85 ± 9 nM"}
{"Structure (SMILES)": "CC(=O)Nc1ccc(-n2cnc(C(=O)NCc3cccs3)c2)nc1", "target": "APP amyloid-beta", "assay": "binding, competition binding", "system": "Alzheimer brain homogenate", "conditions": "with: [3H]PiB", "endpoint": "Ki", "value": "> 1000 nM"}
{"Structure (SMILES)": "COCCOCCOCCOCCOC(=O)/C(C#N)=C/c1ccc2cc(N3CCCCC3)ccc2c1", "target": "APP Aβ42 aggregates", "assay": "binding, fluorescence titration", "conditions": "5% DMSO in water, with: aggregated Abeta42 5 µM", "endpoint": "Kd", "value": "1600 ± 900 nM"}
{"Structure (SMILES)": "OC(Cc1cc(-c2ccc(C(O)C(F)(F)F)s2)sc1-c1ccc(-c2sc(-c3ccc(C(O)C(F)(F)F)s3)cc2CC(O)C(F)(F)F)s1)C(F)(F)F (stereo not shown)", "target": "Amyloid-beta precursor protein, Aβ40 aggregates (APP, Homo sapiens, UniProt P05067)", "assay": "amyloid-beta aggregate binding, fluorescence", "conditions": "24 h aggregation", "endpoint": "Kd", "value": "3790 ± 340 nM"}
{"note": "Repeated from above:"}
{"Structure (SMILES)": "O=C(C=Cc1ccc(O)c(OC(F)(F)F)c1)C(CCOCCOCCOCCO)C(=O)C=Cc1ccc(O)c(OC(F)(F)F)c1 (stereo not shown)", "target": "APP amyloid-beta aggregates", "assay": "binding, thioflavin T competition", "endpoint": "IC50", "value": "1850 nM"}
{"Structure (SMILES)": "COc1cc(O)c2c(c1O)OC(c1ccccc1)CC2=O (stereo not shown)", "target": "APP", "endpoint": "IC50", "value": "55300 ± 2000 nM"}
